# Published values gathered from unrelated publications.
# Compare with care: the assays were run in different laboratories. Several values in a cell are separate wells, animals, samples, runs or records. ± gives the spread as reported.
# B1: human desmocollin-1; sequence looked up; chain RWAPIPASLMENSLGPFPQHVQQIQSDAAQNYTIFYSISGPGVDKEPFNLFYIEKDTGDIFCTRSIDREKYEQFALYGYATTADGYAPEYPLPLIIKIEDDNDNAPYFEHRVTIFTVPENCRSGTSVGKVTATDLDEPDTLHTRLKYKILQQIPDHPKHFSIHPDTGVITTTTPFLDREKCDTYQLIMEVRDMGGQPFGLFNTGTITISLEDENDNPPSFTETSYVTEVEENRIDVEILRMKVQDQDLPNTPHSKAVYKILQGNENGNFIISTDPNTNEGVLCVVKPLNYEVNRQVILQVGVINEAQFSKAASSQTPTMCTTTVTVKIIDSDEGPECHPPVKVIQSQDGFPAGQELLGYKALDPEISSGEGLRYQKLGDEDNWFEINQHTGDLRTLKVLDRESKFVKNNQYNISVVAVDAVGRSCTGTLVVHLDDYNDHAPQIDKEVTICQNNEDFAVLKPVDPDGPENGPPFQFFLDNSASKNWNIEEKDGKTAILRQRQNLDYNYYSVPIQIKDRHGLVATHMLTVRVCDCSTPSECRMKDKSTRDVRPNVILGRWAILAMVLGSVLLLCILFTCFCVTAKRTVKKCFPEDIAQQNLIVSNTEGPGEEVTEANIRLPMQTSNICDTSMSVGTVGGQGIKTQQSFEMVKGGYTLDSNKGGGHQTLESVKGVGQGDTGRYAYTDWQSFTQPRLGEKVYLCGQDEEHKHCEDYVCSYNYEGKGSLAGSVGCCSDRQEEEGLEFLDHLEPKFRTLAKTCIKK
# B2: threonyl-tRNA synthetase, cytoplasmic (human); sequence looked up; chain MFEEKASSPSGKMGGEEKPIGAGEEKQKEGGKKKNKEGSGDGGRAELNPWPEYIYTRLEMYNILKAEHDSILAEKAEKDSKPIKVTLPDGKQVDAESWKTTPYQIACGISQGLADNTVIAKVNNVVWDLDRPLEEDCTLELLKFEDEEAQAVYWHSSAHIMGEAMERVYGGCLCYGPPIENGFYYDMYLEEGGVSSNDFSSLEALCKKIIKEKQAFERLEVKKETLLAMFKYNKFKCRILNEKVNTPTTTVYRCGPLIDLCRGPHVRHTGKIKALKIHKNSSTYWEGKADMETLQRIYGISFPDPKMLKEWEKFQEEAKNRDHRKIGRDQELYFFHELSPGSCFFLPKGAYIYNALIEFIRSEYRKRGFQEVVTPNIFNSRLWMTSGHWQHYSENMFSFEVEKELFALKPMNCPGHCLMFDHRPRSWRELPLRLADFGVLHRNELSGALTGLTRVRRFQQDDAHIFCAMEQIEDEIKGCLDFLRTVYSVFGFSFKLNLSTRPEKFLGDIEVWDQAEKQLENSLNEFGEKWELNSGDGAFYGPKIDIQIKDAIGRYHQCATIQLDFQLPIRFNLTYVSHDGDDKKRPVIVHRAILGSVERMIAILTENYGGKWPFWLSPRQVMVVPVGPTCDEYAQKVRQQFHDAKFMADIDLDPGCTLNKKIRNAQLAQYNFILVVGEKEKISGTVNIRTRDNKVHGERTISETIERLQQLKEFRSKQAEEEF
# B3: Protein S100-A8 (human); sequence looked up; chain MLTELEKALNSIIDVYHKYSLIKGNFHAVYRDDLKKLLETECPQYIRKKGADVWFKELDINTDGAVNFQEFLILVIKMGVAAHKKSHEESHKE
# B4: CSDE1, human; sequence looked up; chain MSFDPNLLHNNGHNGYPNGTSAALRETGVIEKLLTSYGFIQCSERQARLFFHCSQYNGNLQDLKVGDDVEFEVSSDRRTGKPIAVKLVKIKQEILPEERMNGQVVCAVPHNLESKSPAAPGQSPTGSVCYERNGEVFYLTYTPEDVEGNVQLETGDKINFVIDNNKHTGAVSARNIMLLKKKQARCQGVVCAMKEAFGFIERGDVVKEIFFHYSEFKGDLETLQPGDDVEFTIKDRNGKEVATDVRLLPQGTVIFEDISIEHFEGTVTKVIPKVPSKNQNDPLPGRIKVDFVIPKELPFGDKDTKSKVTLLEGDHVRFNISTDRRDKLERATNIEVLSNTFQFTNEAREMGVIAAMRDGFGFIKCVDRDVRMFFHFSEILDGNQLHIADEVEFTVVPDMLSAQRNHAIRIKKLPKGTVSFHSHSDHRFLGTVEKEATFSNPKTTSPNKGKEKEAEDGIIAYDDCGVKLTIAFQAKDVEGSTSPQIGDKVEFSISDKQRPGQQVATCVRLLGRNSNSKRLLGYVATLKDNFGFIETANHDKEIFFHYSEFSGDVDSLELGDMVEYSLSKGKGNKVSAEKVNKTHSVNGITEEADPTIYSGKVIRPLRSVDPTQTEYQGMIEIVEEGDMKGEVYPFGIVGMANKGDCLQKGESVKFQLCVLGQNAQTMAYNITPLRRATVECVKDQFGFINYEVGDSKKLFFHVKEVQDGIELQAGDEVEFSVILNQRTGKCSACNVWRVCEGPKAVAAPRPDRLVNRLKNITLDDASAPRLMVLRQPRGPDNSMGFGAERKIRQAGVID
Molecule,tested on,test,system,conditions,how to read,measurement,value
Peginesatide,UT7/EPO,"tyrosine phosphorylation, LC-MS/MS phosphoproteomics, trypsin, item: FCGR2A tyrosine 304",,"10 nM, 15 min, added: 10 U/mL EPO",reference: vehicle,phosphorylation level,2.7 fold
difelikefalin,,,Japanese haemodialysis patients with pruritus,"intravenous, 0.25 µg/kg, 8 weeks",,PGIC much improved,34.4%
heparin sodium,,,human,"intravenous infusion, 8 IU/kg/h, day 1 to 6",reference: baseline,Emax of PT ratio,1.03
B1 (human desmocollin-1),CYB5R4 knockout human cells,"PP4 interaction, 3xFLAG-PP4C IP-MS",,concentration not given,reference: CYB5R4 KO over parental,log2 fold change,0.83
colistin,Klebsiella pneumoniae,broth microdilution,clinical isolate RKI-No_328/16,,,MIC,64 mg/L
GSGAGSETKM,"construct, MBP fusion, human SCRIB, PDZ 3-4",automated holdup,"peptide, purified PDZ protein","concentration not given, unit not given","reference: biotin control resin, higher = stronger binding",binding intensity,0.0555
milbemycin oxime,Saccharomyces cerevisiae,cell growth,"Pdr5 deleted, Cdr1 overexpressed","2^-5.381 µg/mL, added: fluconazole 1 µg/mL",,OD600,0.934 and 0.958 and 0.969
VMRLQSETSV,"construct, MBP fusion, human SCRIB, PDZ 3-4",automated holdup,"peptide, crude extract","concentration not given, uncorrected, unit not given","reference: biotin control resin, higher = stronger binding",binding intensity,0.477
B2,PP6C (human),"co-immunoprecipitation, IP-MS",CYB5R4 knockout cells,concentration not given,reference: CYB5R4 knockout over parental,log2 fold change,0.49
GSGAGKETYY,"construct, MBP fusion, human SCRIB, PDZ 3-4",automated holdup,"peptide, purified PDZ protein","concentration not given, unit not given","reference: biotin control resin, higher = stronger binding",binding intensity,-0.00579
B3 (Protein S100-A8),PP6C (human),"co-immunoprecipitation, IP-MS",CYB5R4 knockout cells,concentration not given,reference: CYB5R4 knockout over parental,log2 fold change,1.19
VVVGAAGVGK,HLA-A*11:01 peptide-β2M single-chain trimer,"western blot, item: pMHC-I","peptide, 293T cells","48 h, unit not given, added: 100 µg/mL cycloheximide",reference: time zero,remaining protein,0.549 and 0.55 and 0.575
PSMD3 (human),CYB5R4 knockout human cells,"PP6 interaction, 3xFLAG-PP6C IP-MS",,concentration not given,reference: CYB5R4 KO over parental,log2 fold change,-1.57
GGWVEKETYY,"construct, MBP fusion, human SCRIB, PDZ 3-4",automated holdup,"peptide, crude extract","concentration not given, corrected by standard peak, unit not given","reference: biotin control resin, higher = stronger binding",binding intensity,-0.0368
Talin-1 (human),PP6C (human),"co-immunoprecipitation, IP-MS",CYB5R4 knockout cells,concentration not given,reference: CYB5R4 knockout over parental,log2 fold change,-0.97
MTVCNASQRQAHAQATAVSL,HCC1171,phage binding,peptide,,reference: targeting over control phage,selectivity ratio,0.47 ± 0.27
"B4 (CSDE1, human)",CYB5R4 knockout human cells,"PP4 interaction, 3xFLAG-PP4C IP-MS",,concentration not given,reference: CYB5R4 KO over parental,log2 fold change,-2.52
epoetin alfa,UT7/EPO,"RT-qPCR, item: CXCL2",,"concentration not given, 90 min, normalized to HPRT1",reference: vehicle,mRNA level,7 fold

# Excerpt of the above:
Molecule,tested on,test,system,conditions,how to read,measurement,value
VMRLQSETSV,"construct, MBP fusion, human SCRIB, PDZ 3-4",automated holdup,"peptide, crude extract","concentration not given, uncorrected, unit not given","reference: biotin control resin, higher = stronger binding",binding intensity,0.477
B2,PP6C (human),"co-immunoprecipitation, IP-MS",CYB5R4 knockout cells,concentration not given,reference: CYB5R4 knockout over parental,log2 fold change,0.49
